Measured values of several laboratories.
Each numbered part is a random draw from the data of one study; scales do not carry over between parts.

Series 1 — method: universal PBM; molecule type: double-stranded DNA, one strand shown; medium: in vitro; concentration: 600 nM; reading: higher = stronger binding; endpoint: E-score
Target: Sal-like protein 4, full length isoform A (SALL4, Homo sapiens, UniProt Q9UJQ4, residues 1-1053)
UniProt Q9UJQ4, sequence (whole entry, looked up): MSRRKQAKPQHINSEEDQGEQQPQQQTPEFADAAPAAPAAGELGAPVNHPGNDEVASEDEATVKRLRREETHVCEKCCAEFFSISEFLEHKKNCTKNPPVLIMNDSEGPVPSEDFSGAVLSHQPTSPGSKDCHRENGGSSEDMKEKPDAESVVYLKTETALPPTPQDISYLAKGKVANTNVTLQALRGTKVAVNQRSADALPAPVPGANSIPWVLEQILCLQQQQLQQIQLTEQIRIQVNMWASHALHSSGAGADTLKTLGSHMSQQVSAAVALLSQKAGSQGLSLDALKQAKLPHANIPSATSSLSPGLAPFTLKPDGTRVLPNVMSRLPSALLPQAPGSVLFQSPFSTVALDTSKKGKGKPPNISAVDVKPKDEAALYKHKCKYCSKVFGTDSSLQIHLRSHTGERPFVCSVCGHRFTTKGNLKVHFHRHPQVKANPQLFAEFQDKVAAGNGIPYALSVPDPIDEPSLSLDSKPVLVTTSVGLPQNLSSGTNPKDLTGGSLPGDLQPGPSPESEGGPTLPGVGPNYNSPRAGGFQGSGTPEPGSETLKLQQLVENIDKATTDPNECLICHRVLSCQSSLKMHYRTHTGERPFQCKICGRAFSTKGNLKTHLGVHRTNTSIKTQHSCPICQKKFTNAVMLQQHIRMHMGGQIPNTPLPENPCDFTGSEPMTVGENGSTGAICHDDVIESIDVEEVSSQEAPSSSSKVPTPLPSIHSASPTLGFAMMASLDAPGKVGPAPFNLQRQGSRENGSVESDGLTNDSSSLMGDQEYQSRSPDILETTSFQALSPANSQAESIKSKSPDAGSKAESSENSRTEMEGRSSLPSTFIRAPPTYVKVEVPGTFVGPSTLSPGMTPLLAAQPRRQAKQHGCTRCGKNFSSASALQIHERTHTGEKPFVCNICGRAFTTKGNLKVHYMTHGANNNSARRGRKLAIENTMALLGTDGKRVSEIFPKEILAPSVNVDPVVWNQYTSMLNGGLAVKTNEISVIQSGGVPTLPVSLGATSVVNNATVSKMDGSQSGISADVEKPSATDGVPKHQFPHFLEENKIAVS
Notes: 8-mer, flanks averaged, mean of replicates
ACCAAAAC: 0.163
ATGACTAC: 0.0988
CGGCAATA: 0.113
CTATGAAC: 0.142
CGCCCGTA: -0.311
AATCGATG: 0.197
GATCTCCA: -0.231
CTTTAGGA: 0.0756
CTTGGGGC: -0.247
GAGATCCC: -0.165
AACATTAA: 0.328
GACGGTGC: -0.269
CTAAGCCC: -0.29
ATCGGTCC: -0.25
AACTTAGC: 0.035
AGGCGGTA: -0.224
CGGGACCC: -0.364
AACACTGC: -0.0398

Series 2 — method: protein binding microarray; molecule type: double-stranded DNA, one strand shown; medium: in vitro; concentration: not given; reference: not given; reading: higher = stronger binding; endpoint: E-score
Target: Histone acetyltransferase KAT6A, winged helix 1, GST fusion (KAT6A, Homo sapiens, UniProt Q92794, residues 1-85)
Notes: 8-mer, flanks averaged, mean of 2 arrays, mostly near background
Construct (chain): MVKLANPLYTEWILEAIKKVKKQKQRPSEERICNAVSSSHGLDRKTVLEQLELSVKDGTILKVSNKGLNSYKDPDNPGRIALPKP
AACTTGGT: -0.0815
CGCGGGGC: 0.349
GCTGGAAC: 0.0148
ATGAAGAG: -0.15
CTAATACA: -0.183
GCACTGAC: 0.0036
AAGACCTG: -0.199
TAACAGAA: -0.107
ATCTAAAA: -0.183
AGGGTGGC: -0.0956
CGACTTTC: 0.026
GGCCCGGA: 0.175
CCCTGGTA: -0.153
TGGGACCA: -0.206
AGGATCGC: 0.0966
CATATGTA: -0.16
CGTGCATA: 0.03

Series 3 — method: RNA Bind-n-Seq; molecule type: RNA; medium: in vitro; concentration: 200 nM; notes: whole 134-nt RNA, ends assumed; added: 150 mM LiCl; reference: input library; reading: higher = stronger binding; endpoint: log2 enrichment; each molecule: 7-deaza-guanosine replaces G
Target: Fragile X messenger ribonucleoprotein 1, C-terminal low-complexity region (Fmr1, Mus musculus, UniProt P35922)
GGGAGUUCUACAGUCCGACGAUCUGGUUUGAGUCCAGCCAAUGACACUGGAGCCAAAAAGAAGAAAAAGAAACAAAAAAAGAAGAAAGAAAAAGGCAGUGAGACAGAUUCAGCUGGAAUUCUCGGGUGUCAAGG: 1.24
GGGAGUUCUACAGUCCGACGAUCACCAUGCAGGUGGGCAUCUUUGGGAAGUGGGGCAAGGGGGGGAUAGAGAGGGGGGUAACACUUUGGGAACAGGUGGUCCCAGGUCGUUUCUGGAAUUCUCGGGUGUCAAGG: 0.859
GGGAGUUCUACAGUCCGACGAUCCAAGUCCUGUGCUACACAUCGUAUGUACCGAAUCGGGAAAGGGUUUGGGUUUGGGAAAGUAUUAUGUUACGCCGUUCGGAUCUGCACUUCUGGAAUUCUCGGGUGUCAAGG: -1.33
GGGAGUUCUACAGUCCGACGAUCUCCUCAAGUCCUGUGCUACACAUCGUAUGUACCGAAUCGGAGGGAGGGAGGGAAAGUAUUAUGUUACGCCGUUCGGAUCUGCACUUCCAGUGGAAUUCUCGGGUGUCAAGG: -0.404
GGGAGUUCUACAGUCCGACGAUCGCAGCAAGUAAAAACAAAUGGAAAUGCUUCGGAUAGUGGCAGGGGUGGGGGUUGCUAAGGAAAGGGUGGGAUGGGAGUGGGUAAAGAGUUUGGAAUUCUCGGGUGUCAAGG: 1.25
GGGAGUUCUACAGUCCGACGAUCCAGUUUAAGAGGGGUUUCAUGCAAGGGCAUGUAAAUAGACAAGAAAAAGAAGAAAAAGAAGCAAUAUAUAAAGAACGUUGGCCAGAUUAUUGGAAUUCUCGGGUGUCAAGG: 0.648
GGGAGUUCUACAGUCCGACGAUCACCAUGCAGGCGGGCAUCUUUGGGAAGUGGGGCAAGGGGGGGAUAGGGAGGGGGGUAACACUUUGGGAACAGGUGGUCCCAGGUCGUUUCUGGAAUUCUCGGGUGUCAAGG: 1.62
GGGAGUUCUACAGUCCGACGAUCGCAGGAAGUAUAAACAAAUGGAAAUGCUUCGGAUAGUGGCAGGGGUGGGGGUUGCUAAGGAAAGGGUGGGAUGGGAGUGGGUAAAGAGUUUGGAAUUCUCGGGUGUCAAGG: 1.4

Series 4 — method: protein-binding microarray; molecule type: double-stranded DNA, one strand shown; medium: in vitro; concentration: not given; reading: higher = stronger binding; endpoint: E-score
Target: Myc proto-oncogene protein, bHLH-zipper, MAX partner unstated (MYC, Homo sapiens, UniProt P01106, residues 368-449)
UniProt P01106, sequence (368-449, looked up): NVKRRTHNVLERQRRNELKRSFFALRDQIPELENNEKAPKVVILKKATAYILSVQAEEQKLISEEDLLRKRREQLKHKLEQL
Notes: k-mer, scored over probes, only values ≥0.25
CACGCCCG: 0.322
CACGCGGG: 0.469
CACGCATC: 0.39
ACGTGACC: 0.387
ACGCGGGA: 0.299
GTGGCCAC: 0.404
GTGTGGTA: 0.257
CACGCCAG: 0.273
GTGCACAC: 0.285
GAGCATGA: 0.3

Series 5 — method: RNA Bind-n-Seq; molecule type: RNA; medium: in vitro; concentration: not given; reference: input RNA pool; reading: higher = stronger binding; endpoint: bound/input enrichment
Target: RING finger protein unkempt homolog, zinc fingers 1-6, GST-SBP tag (UNK, Homo sapiens, UniProt Q9C0B0, residues 30-357)
UniProt Q9C0B0, sequence (30-357, looked up): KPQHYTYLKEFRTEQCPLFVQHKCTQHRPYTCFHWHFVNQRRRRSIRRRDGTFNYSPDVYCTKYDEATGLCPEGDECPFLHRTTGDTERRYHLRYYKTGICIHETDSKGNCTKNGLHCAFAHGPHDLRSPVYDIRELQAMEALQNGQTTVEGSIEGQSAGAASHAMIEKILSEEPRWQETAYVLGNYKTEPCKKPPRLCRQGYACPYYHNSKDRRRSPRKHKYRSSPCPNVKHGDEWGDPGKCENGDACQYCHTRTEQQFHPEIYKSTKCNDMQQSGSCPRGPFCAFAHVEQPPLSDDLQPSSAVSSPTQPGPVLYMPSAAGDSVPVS
Notes: RNA with constant flanks, human and mouse sites, ends assumed
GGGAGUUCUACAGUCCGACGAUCUUCAAAGCCUUACGUCGACAGUUGCCAGUGACACGUACUAAGAUCGACUGGAACAAGAUCCUUAGCUACAAGAUUGGCAAAGAGAUGCAGAAUGCAUAAAUGAAAAUUGCAUGAGCAGAUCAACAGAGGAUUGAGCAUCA: 0.22 ratio
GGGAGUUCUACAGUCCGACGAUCUCUAGUGGCUUCGGUGGCAAAUACGGUGUGCAAGCUGACCGUGUAGACAAGAGUGCCGUGGGCUUUGACUACCAGGGCAAGACGGAGAAGCAUGAGUCUCAGAAAGAUUACUCCAAAGGUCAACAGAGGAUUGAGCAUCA: 0.197 ratio
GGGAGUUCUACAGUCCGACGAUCAUCGAACCUGUACAACCUCCCCCACCUUCUGUACCAGUGGUAGCUGAUCAAAGAACCAUAACAUUUACAUCAUCAAAAAAUGAAGAACUACAAGGAAAUGAUUCCAAAAUUACUCCUUCCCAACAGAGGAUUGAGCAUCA: 0.203 ratio
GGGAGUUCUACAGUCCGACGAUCCAAAGCAUUGAGCGUUCUCAUCGGAUUGCCACAGAAACUGAUCAAAUUGGUACAGAAAUCAUAGAAGAGUUGGGGGAGCAACGAGACCAGUUGGAACGUACUAAGAGCAGACUGGUAAAUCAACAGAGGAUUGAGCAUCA: 0.437 ratio
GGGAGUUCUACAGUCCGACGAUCGGAUCUGAGAACAAGCUCAUUUCUGUGAGAUGGAAGAGCAUGCCAUAGGCCAAGAGUUGAGUAAAGGUUUACUCUGAAGAUUAAUUUUAACAUUUUUGUUAAUAUUGCAAUUUUAACAAACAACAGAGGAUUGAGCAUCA: 1.67 ratio
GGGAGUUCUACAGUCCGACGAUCAAAUUCUACAAACAAGUUAUUGAUAAAGGCCAAACAAUUCCAGAGGAUAUCUUAGGAAAGAUAGCAGUUUCUAUUGUAAAAGCGUUAGAACAUUUACACAGUAAGCUGUCUGUUAUCCAUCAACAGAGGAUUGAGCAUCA: 0.306 ratio
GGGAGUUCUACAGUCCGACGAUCGCAAAGAAGUUUCCCUCGCCCUUCUUUCCAAGCAAAAUGUUUACUGUAAUGUAUGUCUGUGUGUCCUUUCCAAAUCUCUUCAGAUUCCGUCAACUUUCCAGAUUUAAAUGUCUCCUGGUACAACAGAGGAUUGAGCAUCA: 0.338 ratio
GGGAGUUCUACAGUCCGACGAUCAGUGAGUGGAAGCGGCGGGACGAGGCGCGGAGGCGCGAGCUGGAGGCCCGGCGGCGGCGAGAGCAGGAGGAGGAGCUGCGGCGCCUGCGGGAGCAGGAGAAGGAGGAGAAGGAGCGGAGGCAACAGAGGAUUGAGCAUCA: 0.385 ratio

Excerpt of the above (series 1):
CTTTAGGA: 0.0756
AATCGATG: 0.197
GACGGTGC: -0.269
GATCTCCA: -0.231
ATCGGTCC: -0.25
CGGCAATA: 0.113
CGCCCGTA: -0.311
